Measurements gathered from unrelated publications.
A part holds a random share of what one study measured. Positions count from the first letter of the parent shown.
Chain of UniProt P62837 (whole entry, looked up): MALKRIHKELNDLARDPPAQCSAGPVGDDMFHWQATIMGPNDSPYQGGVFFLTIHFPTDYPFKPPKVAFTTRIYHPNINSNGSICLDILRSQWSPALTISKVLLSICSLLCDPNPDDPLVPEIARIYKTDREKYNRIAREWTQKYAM

Study 1
Target: Centromere-binding protein 1, full length, N-terminal tag (CBF1, Saccharomyces cerevisiae, UniProt P17106, residues 1-351)
Chain of UniProt P17106 (whole entry, looked up): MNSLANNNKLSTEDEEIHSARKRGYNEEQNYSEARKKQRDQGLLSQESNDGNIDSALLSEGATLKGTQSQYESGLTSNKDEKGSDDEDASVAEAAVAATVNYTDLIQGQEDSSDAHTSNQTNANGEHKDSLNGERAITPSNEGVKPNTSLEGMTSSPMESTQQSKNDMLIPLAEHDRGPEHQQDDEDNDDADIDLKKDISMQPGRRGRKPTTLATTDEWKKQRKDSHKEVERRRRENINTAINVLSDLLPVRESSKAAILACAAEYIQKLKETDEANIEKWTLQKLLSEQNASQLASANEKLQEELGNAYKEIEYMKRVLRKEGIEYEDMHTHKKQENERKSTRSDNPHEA
Technique: protein-binding microarray
Form: double-stranded DNA, one strand shown
Medium: in vitro
Tested at: 0.8 µM
Notes: whole 60-bp probe, no competitor
Reading: higher = stronger binding
All sequences stand within: … GTCTTGATTCGCTTGACGCTGCTG
The fluorescence intensity of `GAACTCATATGAGTTCATGTGATATTTCATGTTTAG` is reported as 980 a.u.
With `GAAATATGTTGATGCCACGTAAATAATATGTGTTAG` the fluorescence intensity was 500 a.u.
`GAATTTTGTTTTTATCAGTTGAGATTGAAGTATTAG` has a fluorescence intensity of 539 a.u.
For `GAAGTCACCGAATTTCTCGTGGAATGATTCTTTTAG`, the fluorescence intensity was 515 a.u.
With `CTATTAAGTTTTATAAACGTGTATATGAGATGTTTC` the fluorescence intensity was 553 a.u.
With `CTAATCGAAGCACGTGATCAGTTTTCCACATCCTTC` the fluorescence intensity was 28100 a.u.
The fluorescence intensity of `GAATGAGTTACACCCCGCGTGCTAAAAAAGGGGTAG` is reported as 595 a.u.
With `CTAGTGAGGTTTTATCACGGGGCCACCGTTCTCTTC` the fluorescence intensity was 1380 a.u.

Study 2
Target: CCNF, cyclin fold, Cln2 fusion (human)
Technique: yeast growth competition, sequencing
Medium: yeast
Notes: strong parent motif
Reference: not given
Reading: higher = stronger binding
Parent: RBL2 docking peptide (human); STTRRRLFVENDS
Under “normalised enrichment score”, `STTRRSLFVENDS [R6S]` is recorded as 4.06.
Under “normalised enrichment score”, `STTRRRLFVEMDS [N11M]` is recorded as 9.25.
`STTRRRLFVENDH [S13H]`: “normalised enrichment score” 8.87.
`STSRRRLFVENDS [T3S]` — result for “normalised enrichment score”: 4.24.
`STTRRRLVVENDS [F8V]` — result for “normalised enrichment score”: 4.87.
For `STTRRRLFVENDM [S13M]`, “normalised enrichment score” read 8.05.
`STTRRMLFVENDS [R6M]` — result for “normalised enrichment score”: 6.12.
`STTRRRLFVENDE [S13E]`: “normalised enrichment score” 8.41.

Study 3
Target: Ras GTPase-activating protein-binding protein 1, C-terminal RGG region (G3BP1, Homo sapiens, UniProt Q13283)
Chain of UniProt Q13283 (whole entry, looked up): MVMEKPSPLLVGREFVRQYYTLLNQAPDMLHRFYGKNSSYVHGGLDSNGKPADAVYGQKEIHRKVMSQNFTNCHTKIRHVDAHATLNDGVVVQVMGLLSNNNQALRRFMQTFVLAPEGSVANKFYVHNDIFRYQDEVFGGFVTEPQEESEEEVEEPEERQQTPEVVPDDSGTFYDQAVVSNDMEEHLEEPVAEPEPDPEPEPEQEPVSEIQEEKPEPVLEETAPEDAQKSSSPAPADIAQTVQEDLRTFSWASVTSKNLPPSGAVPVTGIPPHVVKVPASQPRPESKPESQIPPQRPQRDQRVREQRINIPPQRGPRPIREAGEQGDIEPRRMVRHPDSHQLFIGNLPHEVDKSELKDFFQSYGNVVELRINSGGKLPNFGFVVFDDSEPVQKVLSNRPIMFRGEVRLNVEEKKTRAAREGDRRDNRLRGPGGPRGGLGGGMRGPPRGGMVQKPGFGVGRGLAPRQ
Technique: RNA Bind-n-Seq
Form: RNA
Medium: in vitro
Tested at: 1 µM
Notes: whole 134-nt RNA, ends assumed
Together with: 150 mM KCl
Reference: input library
Reading: higher = stronger binding
All sequences stand within: GGGAGUUCUACAGUCCGACGAUC … UGGAAUUCUCGGGUGUCAAGG
The log2 enrichment of `AGUCCUGUGCUACACAUCGUAUGUACCGAAUCGGGGCCCCCGGCCCCCGGCCCCCGGGAAAGUAUUAUGUUACGCCGUUCGGAUCUGCAC` is reported as -2.
`AGUCCUGUGCUACACAUCGUAUGUACCGAAUCAAAUUUAAACCCCCCCAAAUUUAAAAAAGUAUUAUGUUACGCCGUUCGGAUCUGCACU` gave a log2 enrichment of -0.689.
`UGGGAGGUGGAUUUUAUUUAUUUUUUUAGCUCAUUUCCAGGGGUGGGAAUUUUUUUUUAAUAUGUGUCAUGAAUAAAGUUGUUUUUGAAA` has a log2 enrichment of 2.78.
For `AAGUCCUGUGCUACACAUCGUAUGUACCGAAUCGGAAAAAGGUUUUUUUGGUUUGGAAAGUAUUAUGUUACGCCGUUCGGAUCUGCACUU`, the log2 enrichment was -2.41.
With `UUCGUUUUUUUCCUUAGUCUGAAGUUGCAGCCGGAGUGAAGAAGAGCGGACCGCUGCCCAGUGCUGAGGUAGAGUGUCGGAUCUGUUUUC` the log2 enrichment was -1.83.
With `CCUCAAGUCCUGUGCUACACAUCGUAUGUACCGAAUCGGGAGGGUGGGAGGGAAAGUAUUAUGUUACGCCGUUCGGAUCUGCACUUCCAG` the log2 enrichment was 2.5.
The log2 enrichment of `AAGUCCUGUGCUACACAUCGUAUGUACCGAAUCGGGUUUUUGGGAGGGAAAAAGGGAAAGUAUUAUGUUACGCCGUUCGGAUCUGCACUU` is reported as 0.644.
`UCCUCAAGUCCUGUGCUACACAUCGUAUGUACCGAAUCGGAGGGAGGGGAGGAAAGUAUUAUGUUACGCCGUUCGGAUCUGCACUUCCAG` gave a log2 enrichment of -0.607.

Single results of other studies
B1: MDM4 RING domain (UniProt O15151); chain MEDCQNLLKPCSLCEKRPRDGNIIHGRTGHLVTCFHCARRLKKAGASCPICKKEIQLVIKVF
Under “lacZ reporter activity”, `B1 (MDM4 RING domain)` is recorded as 0 (UBE2D2 UBC core domain (UniProt P62837); yeast two-hybrid; yeast; mostly zero background; reference: not given, higher = stronger interaction).

For quick reference, copied from above (study 1):
With `GAAATATGTTGATGCCACGTAAATAATATGTGTTAG` the fluorescence intensity was 500 a.u.
With `CTATTAAGTTTTATAAACGTGTATATGAGATGTTTC` the fluorescence intensity was 553 a.u.
The fluorescence intensity of `GAACTCATATGAGTTCATGTGATATTTCATGTTTAG` is reported as 980 a.u.
